Published values collected from several papers.
± gives the spread as reported.
PSMB5: Proteasome Macropain subunit MB1 (PSMB5, Homo sapiens, UniProt P28074)
Sequence of UniProt P28074 (whole entry, looked up): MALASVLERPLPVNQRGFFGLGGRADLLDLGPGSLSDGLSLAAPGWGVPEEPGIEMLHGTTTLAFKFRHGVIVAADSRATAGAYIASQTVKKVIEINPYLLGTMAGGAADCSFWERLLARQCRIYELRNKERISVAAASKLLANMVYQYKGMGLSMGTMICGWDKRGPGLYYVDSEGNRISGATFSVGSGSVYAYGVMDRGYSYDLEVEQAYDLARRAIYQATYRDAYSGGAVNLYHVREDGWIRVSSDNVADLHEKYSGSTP
CYP2E1: Cytochrome P450 2E1 (CYP2E1, Homo sapiens, UniProt P05181)
Sequence of UniProt P05181 (whole entry, looked up): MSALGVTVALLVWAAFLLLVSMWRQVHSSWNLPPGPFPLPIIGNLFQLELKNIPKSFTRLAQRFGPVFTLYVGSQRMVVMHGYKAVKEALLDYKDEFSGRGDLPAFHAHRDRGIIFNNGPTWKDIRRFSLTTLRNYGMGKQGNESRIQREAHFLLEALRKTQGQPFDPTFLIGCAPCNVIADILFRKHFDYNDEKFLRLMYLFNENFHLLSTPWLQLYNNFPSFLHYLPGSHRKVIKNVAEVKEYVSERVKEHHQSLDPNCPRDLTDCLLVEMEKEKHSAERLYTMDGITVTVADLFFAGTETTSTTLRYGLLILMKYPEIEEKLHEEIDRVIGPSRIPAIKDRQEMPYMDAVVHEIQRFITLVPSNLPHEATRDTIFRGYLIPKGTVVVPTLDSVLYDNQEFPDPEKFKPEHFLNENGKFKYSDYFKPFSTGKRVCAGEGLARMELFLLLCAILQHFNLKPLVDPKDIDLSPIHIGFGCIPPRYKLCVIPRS
SLCO1B1: Solute carrier organic anion transporter family member 1B1 (SLCO1B1, Homo sapiens, UniProt Q9Y6L6)
Sequence of UniProt Q9Y6L6 (whole entry, looked up): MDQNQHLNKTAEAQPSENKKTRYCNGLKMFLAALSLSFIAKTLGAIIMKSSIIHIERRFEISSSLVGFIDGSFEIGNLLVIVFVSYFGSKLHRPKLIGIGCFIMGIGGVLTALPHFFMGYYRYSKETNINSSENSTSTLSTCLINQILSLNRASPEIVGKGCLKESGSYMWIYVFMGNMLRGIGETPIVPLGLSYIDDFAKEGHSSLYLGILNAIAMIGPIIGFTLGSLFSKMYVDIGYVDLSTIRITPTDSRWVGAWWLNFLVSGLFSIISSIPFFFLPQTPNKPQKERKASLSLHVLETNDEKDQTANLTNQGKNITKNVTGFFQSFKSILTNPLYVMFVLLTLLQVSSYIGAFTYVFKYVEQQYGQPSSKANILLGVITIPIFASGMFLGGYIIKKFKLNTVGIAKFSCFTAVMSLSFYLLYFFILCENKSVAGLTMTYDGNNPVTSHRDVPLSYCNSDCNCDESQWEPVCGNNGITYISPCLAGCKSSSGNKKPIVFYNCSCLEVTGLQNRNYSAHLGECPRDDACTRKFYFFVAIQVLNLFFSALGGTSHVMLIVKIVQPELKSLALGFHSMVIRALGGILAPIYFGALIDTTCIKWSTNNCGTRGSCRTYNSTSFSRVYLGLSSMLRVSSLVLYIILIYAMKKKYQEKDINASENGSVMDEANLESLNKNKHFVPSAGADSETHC
Proteasome component C5/PSMB5: Proteasome component C5/PSMB5 (Homo sapiens, UniProt P20618+P28074)
Sequence of UniProt P20618 (whole entry, looked up): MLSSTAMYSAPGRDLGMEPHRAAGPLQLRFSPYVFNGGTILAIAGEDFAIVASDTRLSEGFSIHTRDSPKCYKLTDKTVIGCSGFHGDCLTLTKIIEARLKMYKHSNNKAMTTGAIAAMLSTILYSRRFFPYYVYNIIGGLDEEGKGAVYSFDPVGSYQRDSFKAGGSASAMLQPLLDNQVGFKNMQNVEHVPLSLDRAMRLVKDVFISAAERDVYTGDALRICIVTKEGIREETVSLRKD
PLG: Plasminogen (PLG, Homo sapiens, UniProt P00747)
Sequence of UniProt P00747 (whole entry, looked up): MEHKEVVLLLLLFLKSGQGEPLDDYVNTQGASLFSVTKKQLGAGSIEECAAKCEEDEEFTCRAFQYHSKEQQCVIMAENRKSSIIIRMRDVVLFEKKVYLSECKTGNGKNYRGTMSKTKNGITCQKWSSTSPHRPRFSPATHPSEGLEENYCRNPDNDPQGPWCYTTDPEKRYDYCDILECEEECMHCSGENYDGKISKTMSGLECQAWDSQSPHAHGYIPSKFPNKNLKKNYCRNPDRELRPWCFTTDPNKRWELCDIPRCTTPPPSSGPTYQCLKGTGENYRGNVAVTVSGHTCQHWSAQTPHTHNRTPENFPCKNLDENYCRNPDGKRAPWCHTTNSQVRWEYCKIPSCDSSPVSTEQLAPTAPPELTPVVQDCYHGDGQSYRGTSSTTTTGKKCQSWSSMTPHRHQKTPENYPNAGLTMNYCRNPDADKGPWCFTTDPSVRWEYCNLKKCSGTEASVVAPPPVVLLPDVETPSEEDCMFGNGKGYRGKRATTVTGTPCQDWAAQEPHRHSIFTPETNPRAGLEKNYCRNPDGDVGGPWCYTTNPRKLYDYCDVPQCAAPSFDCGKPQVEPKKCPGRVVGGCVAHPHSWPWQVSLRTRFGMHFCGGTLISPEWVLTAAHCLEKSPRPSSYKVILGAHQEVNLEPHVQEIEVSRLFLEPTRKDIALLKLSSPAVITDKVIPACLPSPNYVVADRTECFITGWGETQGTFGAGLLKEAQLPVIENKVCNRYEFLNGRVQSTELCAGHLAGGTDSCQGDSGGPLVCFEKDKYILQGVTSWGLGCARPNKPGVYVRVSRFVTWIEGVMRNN
Protein AF-9 with DOT1L: Protein AF-9, with DOT1L (Homo sapiens, UniProt P42568)
Sequence of UniProt P42568 (whole entry, looked up): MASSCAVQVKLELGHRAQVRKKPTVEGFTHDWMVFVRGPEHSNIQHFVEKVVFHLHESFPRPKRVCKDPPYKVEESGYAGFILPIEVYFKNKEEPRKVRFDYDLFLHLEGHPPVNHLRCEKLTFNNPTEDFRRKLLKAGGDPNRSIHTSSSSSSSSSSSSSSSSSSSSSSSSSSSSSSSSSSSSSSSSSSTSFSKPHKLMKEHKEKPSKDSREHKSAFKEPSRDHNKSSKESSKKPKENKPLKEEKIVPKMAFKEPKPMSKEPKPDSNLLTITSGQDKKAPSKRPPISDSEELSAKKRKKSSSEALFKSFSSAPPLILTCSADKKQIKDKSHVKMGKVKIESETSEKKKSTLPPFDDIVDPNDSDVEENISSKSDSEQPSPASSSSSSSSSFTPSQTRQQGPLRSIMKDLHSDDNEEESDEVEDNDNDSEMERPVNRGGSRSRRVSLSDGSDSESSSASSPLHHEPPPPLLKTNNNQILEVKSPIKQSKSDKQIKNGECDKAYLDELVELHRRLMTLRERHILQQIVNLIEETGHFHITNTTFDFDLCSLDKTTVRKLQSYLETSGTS
TGM2: Protein-glutamine gamma-glutamyltransferase (TGM2, Homo sapiens, UniProt P21980)
Sequence of UniProt P21980 (whole entry, looked up): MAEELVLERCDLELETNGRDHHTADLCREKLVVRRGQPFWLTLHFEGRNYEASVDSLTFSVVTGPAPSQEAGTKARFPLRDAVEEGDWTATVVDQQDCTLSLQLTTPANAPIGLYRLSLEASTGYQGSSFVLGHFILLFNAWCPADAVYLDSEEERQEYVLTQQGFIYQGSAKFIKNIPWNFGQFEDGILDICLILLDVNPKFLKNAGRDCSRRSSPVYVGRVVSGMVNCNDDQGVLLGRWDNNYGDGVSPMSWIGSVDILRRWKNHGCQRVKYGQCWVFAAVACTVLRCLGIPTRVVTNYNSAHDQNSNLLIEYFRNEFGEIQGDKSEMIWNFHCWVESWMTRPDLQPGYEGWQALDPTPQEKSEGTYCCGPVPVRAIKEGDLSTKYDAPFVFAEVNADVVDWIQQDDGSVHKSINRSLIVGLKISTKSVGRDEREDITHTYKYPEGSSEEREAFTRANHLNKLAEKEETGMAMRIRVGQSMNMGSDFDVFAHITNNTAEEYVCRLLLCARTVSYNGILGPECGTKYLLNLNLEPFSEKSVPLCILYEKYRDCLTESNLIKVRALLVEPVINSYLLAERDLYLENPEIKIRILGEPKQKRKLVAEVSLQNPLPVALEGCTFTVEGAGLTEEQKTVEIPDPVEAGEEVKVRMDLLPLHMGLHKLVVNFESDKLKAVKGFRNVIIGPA
Dihydrofolate reductase type 2: Dihydrofolate reductase type 2 (Escherichia coli, UniProt P00383)
Sequence of UniProt P00383 (whole entry, looked up): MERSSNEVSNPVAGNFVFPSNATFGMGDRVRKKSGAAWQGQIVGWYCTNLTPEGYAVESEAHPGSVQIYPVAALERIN
CSNK1D: Casein kinase I isoform delta (CSNK1D, Homo sapiens, UniProt P48730)
Sequence of UniProt P48730 (whole entry, looked up): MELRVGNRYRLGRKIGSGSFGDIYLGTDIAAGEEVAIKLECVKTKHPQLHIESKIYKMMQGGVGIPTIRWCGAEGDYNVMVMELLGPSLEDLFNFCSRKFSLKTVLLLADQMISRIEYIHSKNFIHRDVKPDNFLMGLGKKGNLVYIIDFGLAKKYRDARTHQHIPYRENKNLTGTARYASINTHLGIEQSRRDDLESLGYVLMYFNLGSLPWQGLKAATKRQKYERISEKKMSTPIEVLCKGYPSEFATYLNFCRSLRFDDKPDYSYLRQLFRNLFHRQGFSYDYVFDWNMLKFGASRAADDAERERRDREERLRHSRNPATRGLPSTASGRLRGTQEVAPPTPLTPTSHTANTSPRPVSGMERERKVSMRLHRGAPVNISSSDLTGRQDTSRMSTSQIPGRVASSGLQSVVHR
PPARG ligand-binding domain: Peroxisome proliferator-activated receptor gamma, ligand-binding domain (PPARG, Homo sapiens, UniProt P37231)
Sequence of UniProt P37231 (whole entry, looked up): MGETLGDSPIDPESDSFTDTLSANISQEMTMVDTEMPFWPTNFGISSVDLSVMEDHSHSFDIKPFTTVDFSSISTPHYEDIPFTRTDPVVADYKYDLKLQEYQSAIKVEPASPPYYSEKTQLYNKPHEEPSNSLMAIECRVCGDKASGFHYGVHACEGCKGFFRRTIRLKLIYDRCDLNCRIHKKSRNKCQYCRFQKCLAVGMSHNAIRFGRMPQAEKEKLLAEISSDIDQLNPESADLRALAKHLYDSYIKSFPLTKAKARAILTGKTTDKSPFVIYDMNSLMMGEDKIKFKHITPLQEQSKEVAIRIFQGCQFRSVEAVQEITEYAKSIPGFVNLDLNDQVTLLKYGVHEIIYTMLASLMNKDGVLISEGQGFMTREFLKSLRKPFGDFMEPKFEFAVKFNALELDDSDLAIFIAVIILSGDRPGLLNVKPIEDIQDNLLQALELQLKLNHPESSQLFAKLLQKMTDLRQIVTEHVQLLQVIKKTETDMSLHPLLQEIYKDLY
RET: Proto-oncogene tyrosine-protein kinase receptor Ret (RET, Homo sapiens, UniProt P07949)
Sequence of UniProt P14555 (whole entry, looked up): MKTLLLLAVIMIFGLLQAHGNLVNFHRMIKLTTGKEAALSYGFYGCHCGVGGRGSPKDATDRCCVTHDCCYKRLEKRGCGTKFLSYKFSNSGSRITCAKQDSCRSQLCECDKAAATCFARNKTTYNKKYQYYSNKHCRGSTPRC

For `Cc1ncc(C(=O)N[C@@H](CC2CCC3CCCCC3C2)C(=O)N[C@@H](CC(C)C)C(=O)N[C@H](/C=C/S(C)(=O)=O)Cc2ccc(CN)cc2)s1` (stereo partly shown), the IC50 was 1.94 µM (PSMB5; competitive ABPP; Raji cell lysate).
With `CC[C@@H]1[C@H](F)C(=O)N[C@@H]1COc1nccc2cc(C(N)=O)c(OC)cc12` the IC50 was over 5 µM (PKN1 (Homo sapiens, UniProt Q16512); ATP probe binding, KiNativ profiling, item: Lys1 probe site; THP-1 cell lysate).
`CCc1oc2ccccc2c1C(=O)c1cc(Br)c(O)c(Br)c1` has an IC50 of 0.03 µM (CYP2E1; p-nitrophenol hydroxylation; baculosomes; 10 min).
`CCOC(=O)C1CCCN1C(=O)c1ccc(NCc2cnc3nc(N)nc(N)c3n2)cc1` (stereo not shown) has an IC50 of over 100 µM (Pteridine reductase 1 (Leishmania major, UniProt Q01782); estimated).
The IC50 of `NC(N)=NCCC[C@H](NC(=O)[C@@H]1CCCN1C(=O)[C@H](N)Cc1ccccc1)C(=O)CCl` is reported as 0.00032 ± 9e-05 µM (TMPRSS2 (Homo sapiens, UniProt O15393); enzyme activity).
The IC50 of `CCn1c(-c2nc3cc(C(=O)N4CCC[C@@H](N)C4)cc(OC)c3n2C)cc2cccnc21` is reported as over 25.1 µM (SLCO1B1; transport, inhibitor, imaging).
With `CC(C)C[C@H](NC(=O)[C@H](CCc1ccccc1)NC(=O)CN1CCOCC1)C(=O)N[C@@H](Cc1ccccc1)C(=O)NN(CC(C)C)C(=O)/C=C/C(=O)OCc1ccccc1` the IC50 was 1.3 ± 0.5 µM (Proteasome component C5/PSMB5; chymotrypsin-like activity, inhibitor; human 20S proteasome; added: Suc-LLVY-AMC 100 µM).
The IC50 of `CC1CC(C)CN(c2ccc(C=NNc3nc(-c4ccc(Br)cc4)cs3)cc2)C1` (stereo not shown) is reported as 28.9 µM (alpha-glucosidase; enzyme activity, inhibitor; added: p-nitrophenyl-alpha-D-glucopyranoside).
The IC50 of `Cn1c(=O)c2c(ncn2C)n(C)c1=O` is reported as 335 µM (SLC2A9 (Homo sapiens, UniProt Q9NRM0); urate uptake; Xenopus oocytes; 1 h, pH 7.4, added: 40 µM [14C]urate).
For `COc1ccc(F)cc1C(=O)NCc1ccc(-c2nn([C@@H](C)C(F)(F)F)c(N)c2C(N)=O)cc1`, the IC50 was over 5 µM (TXK (Homo sapiens, UniProt P42681); target engagement, NanoBRET tracer displacement; HEK293; above top tested dose).
For `COc1ccc(C[C@H](NC(=O)[C@H](C)NC(=O)CN2CCOCC2)C(=O)N[C@H](C(=O)[C@@]2(C)CO2)C2CCCCC2)cc1`, the IC50 was over 10 µM (PSMB5; competitive ABPP; Raji cell lysate).
`C[C@H](CCC(=O)O)[C@@H]1CC[C@H]2[C@@H]3CCC4=CC(=O)CC[C@]4(C)[C@H]3CC[C@@]21C` has an IC50 of 0.213 µM (Androgen receptor (AR, Homo sapiens, UniProt P10275); reporter gene, antagonist, luciferase reporter; added: DHT 15 pM).
`O=c1nc(SCc2cc(F)cc(C(F)(F)F)c2)nc(SCc2ccc3nc(Cl)ccc3c2)[nH]1` gave an IC50 of 25.7 µM (TOP2A (Homo sapiens, UniProt P11388); ATPase activity, ATP-competitive inhibitor; added: ATP 0.5 mM).
For `N=C(N)c1ccc(CNC(=O)c2cnn(Cc3ccccc3)c2)cc1`, the IC50 was 5.7 µM (PLG).
For `c1cc(-c2ccc3ncc(OCC4CCNCC4)nc3c2)cc(N2CCCCC2)c1`, the IC50 was 6 µM (Protein AF-9 with DOT1L; DOT1L binding, AlphaLISA).
`CCS(=O)(=O)N1CC(CC#N)(n2cc(-c3ncnc4[nH]ccc34)cn2)C1` — result for IC50: “no inhibition” (SLCO1B1; transport, inhibitor; human, SLCO1B1-expressing cells; added: [3H]estrone-3-sulfate and [3H]pravastatin substrates).
With `CC1=CC(=O)c2ccccc2C1=O` the IC50 was over 50 µM (TGM2; enzyme activity, inhibitor; added: DTT 10 mM).
`CCN(CCO)C(=O)c1ccc2nc(-c3ccc(OCCC(O)COc4ccc(-c5nc6ccc(C(=O)N(CC)CCO)cc6[nH]5)cc4Br)c(Br)c3)[nH]c2c1` (stereo not shown) gave an IC50 of over 50 µM (Dihydrofolate reductase type 2; enzyme activity; pH 7).
For `CC(=O)C(=O)N(CC(C)C)NC(=O)[C@H](Cc1ccccc1)NC(=O)[C@H](CC(C)C)NC(=O)[C@H](CCc1ccccc1)NC(=O)CN1CCOCC1`, the IC50 was 9.9 ± 1.7 µM (Proteasome component C5/PSMB5; β5 chymotrypsin-like activity, inhibitor; added: Suc-LLVY-AMC 100 µM).
With `COCc1nn(Cc2ccc(Cn3ccccc3=O)cc2)cc1C(=O)NCc1c(F)ccc(OC)c1F` the IC50 was over 40 µM (PLG).
For `COc1ccc(-c2nc3ccc(C(=O)N4CCN(C)CC4)cc3[nH]2)cc1Br`, the IC50 was over 2500 µM (Dihydrofolate reductase type 2; enzyme activity; pH 7).
`CC(C)N(C)C(=O)c1ccc2nc(-c3ccccc3)cn2c1` gave an IC50 of over 50 µM (Protein AF-9, YEATS domain (Homo sapiens, UniProt P42568); YEATS domain binding, inhibitor, HTRF).
`Cc1ncc(C(=O)N[C@@H](CC2CCC(C)CC2)C(=O)N[C@@H](CC(C)C)C(=O)N[C@H](/C=C/S(C)(=O)=O)Cc2ccc(CN)cc2)s1` (stereo partly shown) gave an IC50 of over 10 µM (PSMB5; competitive ABPP; Raji cell lysate).
With `Fc1ccc(-c2nc(-c3ccc4ccccc4c3)[nH]c2-c2ccncc2)cc1` the IC50 was 1.23 ± 0.34 µM (CSNK1D; inhibitor).
`CC(C)C[C@H](NC(=O)c1cnccn1)C(=O)N[C@@H](C)C(=O)N[C@H](/C=C/S(C)(=O)=O)Cc1ccc(CN)cc1` has an IC50 of over 10 µM (PSMB5; competitive ABPP; Raji cell lysate).
For `Fc1ccc(-c2nc(-c3c(F)cccc3Cl)[nH]c2-c2ccncc2)cc1`, the IC50 was 0.0299 ± 0.0041 µM (CSNK1D; inhibitor).
For `O=C(Nc1ccccc1)c1cc([N+](=O)[O-])ccc1Cl`, the IC50 was 0.145 µM (PPARG ligand-binding domain; binding, scintillation proximity; His-tagged ligand-binding domain; added: [3H]rosiglitazone).
The IC50 of `NCc1ccc(CNC(=O)c2cnn(Cc3ccc(Cn4ccccc4=O)cc3)c2)cc1` is reported as 28 µM (PLG).
With `O=C(NC1CCNCC1)c1ccc2nc(-c3ccc(N4CCCCC4)cc3)c(-c3ccc(N4CCCCC4)cc3)nc2c1` the IC50 was 2.5 µM (Protein AF-9 with DOT1L; DOT1L binding, AlphaLISA).
For `O=C1NC(=O)c2cc(Nc3ccccc3)c(Nc3ccccc3)cc21`, the IC50 was 17.5 ± 2.23 µM (Androgen receptor (AR, Homo sapiens, UniProt P10275, Q868H); antagonist).
`CC1CC(C)CN(c2ccc(C=NNc3nc(-c4ccccc4)cs3)cc2)C1` (stereo not shown) has an IC50 of 9.36 µM (alpha-glucosidase; enzyme activity, inhibitor; added: p-nitrophenyl-alpha-D-glucopyranoside).
With `CCOCC(=O)N1CCC[C@H](C(=O)NCc2nc(-c3ccc(C#N)cc3)cs2)C1` the IC50 was 0.02 ± 0.0083 µM (uncharacterized protein (Plasmodium falciparum, UniProt A0A5K1K7U1+Q8I261+Q8IJT1); Suc-LLVY-AMC).
`CC(C)C[C@H](NC(=O)c1cc(Cl)ccc1Cl)C(=O)N[C@@H](CC(C)C)C(=O)N[C@H](/C=C/S(C)(=O)=O)Cc1ccc(CN)cc1` has an IC50 of 5.62 µM (PSMB5; inhibitor, competitive ABPP; Raji cell lysate; constitutive proteasome β5c).
For `Oc1ccc(Cl)cc1Nc1nc(NCC2CCCO2)c2ccccc2n1` (stereo not shown), the IC50 was 0.12 µM (GBA1 (Homo sapiens, UniProt P04062, R534H); enzyme activity, inhibitor, fluorogenic; 20 min, room temperature, added: resorufin β-glucoside 30 µM).
`O=C1C(SCCO)=C(SCCO)C(=O)c2ccccc21` gave an IC50 of over 50 µM (TGM2; enzyme activity, inhibitor; added: DTT 10 mM).
`Oc1c(-c2nc(-c3ccc(F)cc3)c(-c3ccncc3)[nH]2)ccc2ccccc12` has an IC50 of 2.98 ± 0.193 µM (CSNK1D; inhibitor).
`O=c1c(O)c(-c2ccc(O)c(O)c2)oc2cc(O)cc(O)c12` gave an IC50 of 24.2 µM (CYP2E1; pooled human liver microsomes; 10 min).
With `COc1ccc(NC(=O)Nc2ccccc2-c2nc(-c3ccoc3)n[nH]2)cc1` the IC50 was 17.4 µM (RET; kinase activity, inhibitor; replicate two, added: 1 µM ATP, poly(Glu,Tyr)).
With `CCc1oc2ccccc2c1C(=O)c1ccc(O)cc1` the IC50 was 74 µM (CYP2E1; p-nitrophenol hydroxylation, inhibitor; baculosomes; 10 min, with additive 100 µM).
`CC1=C(/C=C\C2=CCC[C@]3(C)[C@@H]([C@H](C)CCCC(C)C)CC[C@@H]23)C[C@@H](O)CC1` has an IC50 of 500 µM (PPARG (Homo sapiens, UniProt P37231); coactivator recruitment, TR-FRET; ligand-binding domain).
`CN1CCN(c2ccc(Nc3ncc4cc(C#N)c(=O)n(C5CCCC5)c4n3)cc2)CC1` gave an IC50 of 8.5 µM (CHEK2 (Homo sapiens, UniProt O96017)).
`COc1cccc(OC)c1-c1nc(-c2ccc(F)cc2)c(-c2ccncc2)[nH]1` gave an IC50 of 0.298 ± 0.0279 µM (CSNK1D; inhibitor).
The IC50 of `COC(=O)c1ccc2nc(-c3ccc(OCCCN4CCN(C)CC4)c(Br)c3)[nH]c2c1` is reported as over 630 µM (Dihydrofolate reductase type 2; enzyme activity; pH 7).
With `CN(C)c1ccc(Nc2ccc3ncc(OCC4CCNCC4)nc3c2)cc1` the IC50 was 2.1 µM (Protein AF-9 with DOT1L; DOT1L binding, AlphaLISA).
For `Fc1ccc(-c2nc(-c3c(F)cccc3I)[nH]c2-c2ccncc2)cc1`, the IC50 was 0.0256 ± 0.0087 µM (CSNK1D; inhibitor).
For `CC(C)C[C@H](NC(=O)[C@H](CCc1ccccc1)NC(=O)CN1CCOCC1)C(=O)N[C@@H](Cc1ccccc1)C(=O)NN(CC(C)C)C(=O)/C=C/C(=O)NCc1ccccc1`, the IC50 was 0.2 ± 0.1 µM (Proteasome component C5/PSMB5; chymotrypsin-like activity, inhibitor; human 20S proteasome; added: Suc-LLVY-AMC 100 µM).
`CN1CCN(CCCOc2ccc(-c3nc4ccc(C(=O)NCCN5CCOCC5)cc4[nH]3)cc2)CC1` has an IC50 of over 500 µM (Dihydrofolate reductase type 2; enzyme activity; pH 7).
With `c1cc(-c2cc3ncc(OCC4CCNCC4)nc3cc2-c2cccc(N3CCCCC3)c2)cc(N2CCCCC2)c1` the IC50 was 1.7 ± 0.26 µM (Protein AF-9, with AF4 (Homo sapiens, UniProt P42568); AlphaScreen).
`COc1ccc([N+](=O)[O-])cc1C(=O)Nc1ccc(CCF)cc1` has an IC50 of 0.0466 ± 0.0007 µM (PPARG ligand-binding domain; binding, scintillation proximity; His-tagged ligand-binding domain; added: [3H]rosiglitazone).
With `Nc1nc(SCC(=O)Nc2ccc3c(c2)OCO3)[nH]c(=O)c1NC(=O)c1ccc(F)c(F)c1` the IC50 was 73 µM (RET; kinase activity, inhibitor; replicate two, added: 1 µM ATP, poly(Glu,Tyr)).
`COc1cc(/C=N/n2c(C)nc3ccc(C)cc3c2=O)ccc1OCc1ccccc1` gave an IC50 of 93.7 ± 4.28 µM (Phospholipase A2, membrane associated (Homo sapiens, UniProt P14555); enzyme activity, inhibitor, colorimetric).
The IC50 of `O=C1C=Cc2c(c(-c3ccoc3)cn2S(=O)(=O)c2ccccc2)C1=O` is reported as 10.3 µM (ELAV-like protein 1, RRM1-RRM2 domains (ELAVL1, Homo sapiens, UniProt Q15717); HuR-RNA complex formation, REMSA; added: 1 nM labelled RNA probe).

Repeated from above:
With `CCOCC(=O)N1CCC[C@H](C(=O)NCc2nc(-c3ccc(C#N)cc3)cs2)C1` the IC50 was 0.02 ± 0.0083 µM (uncharacterized protein (Plasmodium falciparum, UniProt A0A5K1K7U1+Q8I261+Q8IJT1); Suc-LLVY-AMC).
The IC50 of `O=C1C=Cc2c(c(-c3ccoc3)cn2S(=O)(=O)c2ccccc2)C1=O` is reported as 10.3 µM (ELAV-like protein 1, RRM1-RRM2 domains (ELAVL1, Homo sapiens, UniProt Q15717); HuR-RNA complex formation, REMSA; added: 1 nM labelled RNA probe).
For `c1cc(-c2ccc3ncc(OCC4CCNCC4)nc3c2)cc(N2CCCCC2)c1`, the IC50 was 6 µM (Protein AF-9 with DOT1L; DOT1L binding, AlphaLISA).
`CCOC(=O)C1CCCN1C(=O)c1ccc(NCc2cnc3nc(N)nc(N)c3n2)cc1` (stereo not shown) has an IC50 of over 100 µM (Pteridine reductase 1 (Leishmania major, UniProt Q01782); estimated).
